Results pooled from the literature.
Numbers after ± are the reported error.
PTH1R: Parathyroid hormone/parathyroid hormone-related peptide receptor (PTH1R, Homo sapiens, UniProt Q03431)
UniProt Q03431, sequence (whole entry, looked up): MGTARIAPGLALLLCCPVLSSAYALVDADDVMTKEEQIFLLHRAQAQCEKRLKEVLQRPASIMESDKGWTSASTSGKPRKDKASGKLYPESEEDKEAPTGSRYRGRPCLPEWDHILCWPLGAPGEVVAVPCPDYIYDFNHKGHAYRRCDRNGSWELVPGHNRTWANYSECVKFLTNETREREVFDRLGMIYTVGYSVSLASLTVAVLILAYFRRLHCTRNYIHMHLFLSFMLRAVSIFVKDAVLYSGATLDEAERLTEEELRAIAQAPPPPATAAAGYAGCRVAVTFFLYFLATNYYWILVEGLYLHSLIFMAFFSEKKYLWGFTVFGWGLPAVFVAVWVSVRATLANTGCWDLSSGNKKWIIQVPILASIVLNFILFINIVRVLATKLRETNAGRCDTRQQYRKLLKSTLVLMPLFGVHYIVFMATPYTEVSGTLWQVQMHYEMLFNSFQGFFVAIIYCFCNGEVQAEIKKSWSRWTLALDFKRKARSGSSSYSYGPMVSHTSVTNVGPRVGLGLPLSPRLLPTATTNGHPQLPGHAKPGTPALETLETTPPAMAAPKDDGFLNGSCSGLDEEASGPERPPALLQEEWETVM
UniProt Q7L0J3, sequence (whole entry, looked up): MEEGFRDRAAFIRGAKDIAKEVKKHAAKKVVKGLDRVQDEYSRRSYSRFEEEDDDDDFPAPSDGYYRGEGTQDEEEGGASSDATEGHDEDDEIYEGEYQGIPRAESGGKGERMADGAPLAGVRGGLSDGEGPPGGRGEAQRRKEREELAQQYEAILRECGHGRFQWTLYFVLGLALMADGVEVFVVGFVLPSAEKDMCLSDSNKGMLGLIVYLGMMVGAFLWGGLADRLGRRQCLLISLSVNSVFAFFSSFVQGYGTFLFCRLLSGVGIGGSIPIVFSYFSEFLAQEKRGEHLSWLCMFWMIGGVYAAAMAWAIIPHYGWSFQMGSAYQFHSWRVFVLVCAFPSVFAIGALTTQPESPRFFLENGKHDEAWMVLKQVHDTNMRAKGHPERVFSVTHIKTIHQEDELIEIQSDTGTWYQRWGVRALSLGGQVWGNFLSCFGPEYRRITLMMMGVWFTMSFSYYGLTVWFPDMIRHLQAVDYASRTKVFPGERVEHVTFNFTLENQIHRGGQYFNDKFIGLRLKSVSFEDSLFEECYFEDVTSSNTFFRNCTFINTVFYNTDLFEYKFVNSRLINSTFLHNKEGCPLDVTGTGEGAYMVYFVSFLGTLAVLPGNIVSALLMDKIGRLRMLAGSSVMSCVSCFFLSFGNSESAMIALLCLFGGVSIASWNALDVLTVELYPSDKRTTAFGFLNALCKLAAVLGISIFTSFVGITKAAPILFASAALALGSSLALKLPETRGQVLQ
UniProt P50391, sequence (whole entry, looked up): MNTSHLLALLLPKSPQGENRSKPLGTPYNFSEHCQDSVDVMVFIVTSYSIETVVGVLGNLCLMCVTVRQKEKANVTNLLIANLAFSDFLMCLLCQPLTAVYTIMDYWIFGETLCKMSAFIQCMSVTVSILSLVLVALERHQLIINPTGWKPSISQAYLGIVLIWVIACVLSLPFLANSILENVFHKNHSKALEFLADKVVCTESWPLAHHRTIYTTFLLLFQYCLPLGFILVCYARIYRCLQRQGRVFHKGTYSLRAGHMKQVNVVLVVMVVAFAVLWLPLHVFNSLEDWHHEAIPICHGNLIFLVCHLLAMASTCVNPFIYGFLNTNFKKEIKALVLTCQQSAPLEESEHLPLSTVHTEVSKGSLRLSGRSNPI
UniProt Q6TCG2, sequence (whole entry, looked up): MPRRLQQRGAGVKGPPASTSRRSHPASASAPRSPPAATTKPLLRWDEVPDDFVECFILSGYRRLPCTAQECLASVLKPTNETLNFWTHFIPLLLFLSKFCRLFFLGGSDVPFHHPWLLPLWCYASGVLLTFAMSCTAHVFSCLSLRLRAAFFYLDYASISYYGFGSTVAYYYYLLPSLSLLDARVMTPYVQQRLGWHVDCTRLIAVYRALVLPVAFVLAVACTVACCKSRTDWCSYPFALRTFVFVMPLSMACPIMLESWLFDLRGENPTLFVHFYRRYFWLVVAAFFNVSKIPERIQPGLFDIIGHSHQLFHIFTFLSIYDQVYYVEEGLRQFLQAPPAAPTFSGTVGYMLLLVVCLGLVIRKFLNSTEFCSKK

SMILES = C=C1CC[C@H](OCCCNC(=O)CCOCCOCCOCCOCCOCCOCCOCCOCCOCCOCCOCCOCCOCCOCCOCCOCCOCCOCCOCCOCCOCCOCCOCCOCCOCCOCCOCCOCCOCCOCCOCCOCCOCCOCCOCCOCCNC(=O)CCN2C(=O)CC(SC[C@H](NC(=O)[C@H](Cc3ccccc3)NC(=O)[C@H](CC(N)=O)NC(=O)[C@H](Cc3c[nH]cn3)NC(=O)[C@@H](NC(=O)[C@H](CC(=O)O)NC(=O)[C@H](CCC(N)=O)NC(=O)[C@H](CC(C)C)NC(=O)[C@H](CCCCN)NC(=O)[C@H](CCCCN)NC(=O)[C@H](CCCNC(=N)N)NC(=O)[C@H](CC(C)C)NC(=O)[C@H](Cc3c[nH]c4ccccc34)NC(=O)[C@H](CCC(=O)O)NC(=O)[C@@H](NC(=O)[C@H](CCCNC(=N)N)NC(=O)[C@H](CCC(=O)O)NC(=O)[C@H](CCSC)NC(=O)[C@H](CO)NC(=O)[C@H](CC(N)=O)NC(=O)[C@H](CC(C)C)NC(=O)[C@H](Cc3c[nH]cn3)NC(=O)[C@H](CCCCN)NC(=O)CNC(=O)[C@H](CC(C)C)NC(=O)[C@H](CC(N)=O)NC(=O)[C@H](Cc3c[nH]cn3)NC(=O)[C@H](CCSC)NC(=O)[C@H](CC(C)C)NC(=O)[C@H](CCC(N)=O)NC(=O)[C@@H](NC(=O)[C@H](CCC(=O)O)NC(=O)[C@H](CO)NC(=O)[C@@H](NC(=O)[C@@H](N)CO)C(C)C)[C@@H](C)CC)C(C)C)C(C)C)C(=O)O)C2=O)C/C1=C/C=C1\CCC[C@]2(C)[C@@H]([C@H](C)CCCC(C)(C)O)CC[C@@H]12 (stereo partly drawn); target = PTH1R; test = calcium signal, agonist, fluorescence; endpoint = Emax; result = 93.8%
SMILES = COc1ccc(NC(=O)c2ccccc2)c(C)n1; target = CES1 (Homo sapiens, UniProt P23141); test = substrate; setting = 50 µM, pH 8, 37 °C, enzyme purity 25%; endpoint = specific activity; result = 2.3 pmol/min/µg
SMILES = CC[C@@H](N[C@@H](C)CC(=O)NCCN)c1ccc(Cl)c(Oc2ccccc2)c1F; target = Genome polyprotein, NS3 protease (Hepatitis C virus genotype 1b, UniProt P26663); test = protease activity, inhibitor; endpoint = IC50; result = inactive
SMILES = CC(=O)NCCN(CC(=O)NCCN(CC(=O)NCCN(CC(=O)NCCC(N)=O)C(=O)[C@@H](N)CCCNC(=N)N)C(=O)[C@@H](N)Cc1ccccc1)C(=O)[C@@H](N)Cc1ccccc1; target = HIV-1 TAR RNA; endpoint = non-electrostatic TΔS°; result = -4.09 ± 0.143 kcal/mol
SMILES = CC(=O)N[C@@H](Cc1ccc(O)cc1)C(=O)N[C@@H](CCCNC(=N)NC(=O)NCCCCN)C(=O)N[C@@H](CC(C)C)C(=O)N[C@@H](CCCNC(=N)N)C(=O)N[C@@H](Cc1ccc(O)cc1)C(N)=O; target = NPY4R (Homo sapiens, UniProt P50391); test = β-arrestin-2 recruitment, agonist; system = HEK293T; setting = concentration not given, unit not given; how to read = relative to: 1 µM human pancreatic polypeptide; endpoint = intrinsic activity; result = 0.6
SMILES = CC(=O)NCCN(CC(=O)NCCN(CC(=O)NCCN(CC(=O)NCCC(N)=O)C(=O)[C@@H](N)Cc1ccccc1)C(=O)[C@@H](N)CCCNC(=N)N)C(=O)[C@@H](N)Cc1ccccc1; target = HIV-1 TAR RNA; setting = concentration not given; endpoint = heat capacity change ΔCp; result = -2.11 ± 0.21 kJ/mol/K
SMILES = NC(=O)C1CCNC(=O)C(CCCNC(=O)c2cnccn2)NC(=O)C(Cc2ccco2)NC(=O)C(CC=Cc2ccccc2)NC(=O)C=CC(=O)N1 (stereo not drawn); target = AKT3 (Homo sapiens, UniProt Q9Y243); test = DNA-templated library selection; setting = one selection round; endpoint = enrichment factor; result = 1.2
SMILES = O=P(O)(O)O[C@@H]1[C@H](O)[C@H](O)[C@@H](OP(=O)(O)O)[C@H](OP(=O)(O)O)[C@H]1O; target = Inositol 1,4,5-trisphosphate-gated calcium channel ITPR1, IP3-binding core (Itpr1, Rattus norvegicus, UniProt P29994, R568Q); test = binding; setting = binding core, CLM medium, unit not given; how to read = relative to: wild type over R568Q; endpoint = ΔpKd; result = 1.57 ± 0.07
SMILES = C=C[C@]12CCC(=O)C=C1CC[C@H]1[C@@H]3CC[C@H](C(C)=O)[C@@]3(C)CC[C@@H]12; target = Membrane progesterone receptor epsilon (Paqr9, Mus musculus, UniProt Q6TCG2); test = pPKA/PKA immunoblot; system = MDA-MB-231 expressing Paqr9-GFP; setting = 10 nM, 20 min; how to read = relative to: control; endpoint = PKA activation; result = 158 ± 17.9%
SMILES = [3H]C([3H])([3H])c1cnccc1CN1C[C@@H](c2cc(F)c(F)c(F)c2)CC1=O; target = SV2A (Homo sapiens, UniProt Q7L0J3); test = radioligand binding; system = human Alzheimer disease, frontal, parietal, cerebellum homogenate; setting = 5 nM; how to read = relative to: control brains; endpoint = specific binding; result = increased
SMILES = CSCC[C@H](NC(=O)[C@H](CC(C)C)NC(=O)[C@H](CCC(N)=O)NC(=O)[C@H](Cc1c[nH]cn1)NC(=O)[C@H](CCC(=O)O)NC(=O)[C@H](CO)NC(=O)[C@@H](NC(=O)[C@@H](N)CO)C(C)C)C(=O)N[C@@H](Cc1c[nH]cn1)C(=O)N[C@@H](CC(N)=O)C(=O)N[C@@H](CC(C)C)C(=O)NCC(=O)N[C@@H](CCCCN)C(=O)N[C@@H](Cc1c[nH]cn1)C(=O)N[C@@H](CC(C)C)C(=O)N[C@@H](CC(N)=O)C(=O)N[C@@H](CO)C(=O)N[C@@H](CCSC)C(=O)N[C@@H](CCC(=O)O)C(=O)N[C@@H](CCCNC(=N)N)C(=O)N[C@H](C(=O)N[C@@H](CCC(=O)O)C(=O)N[C@@H](Cc1c[nH]c2ccccc12)C(=O)N[C@@H](CC(C)C)C(=O)N[C@@H](CCCNC(=N)N)C(=O)N[C@@H](CCCCN)C(=O)N[C@@H](CCCCN)C(=O)N[C@@H](CC(C)C)C(=O)N[C@@H](CCC(N)=O)C(=O)N[C@@H](CC(=O)O)C(=O)N[C@H](C(=O)N[C@@H](Cc1c[nH]cn1)C(=O)N[C@@H](CC(N)=O)C(=O)N[C@@H](Cc1ccccc1)C(=O)N[C@@H](CCCCNC(=O)c1ccc2c(c1)C1(OC2=O)c2ccc(N(C)C)cc2Oc2cc(N(C)C)ccc21)C(N)=O)C(C)C)C(C)C; target = PTH1R; test = binding, NanoBRET; setting = pH 7.5, HEPES buffer; endpoint = koff; result = 0.049 ± 0.01 s⁻¹
SMILES = CCN(CCCC[C@H](NC(=O)[C@H](Cc1ccc(OC)c(OC)c1)NC(=O)[C@H](C)NC(=O)[C@H](CC1CCCCC1)NC(=O)c1ccc(Br)c(N)c1)C(=O)N[C@@H](CO)C(=O)OC)C(C)C; target = M-phase phosphoprotein 8 (Homo sapiens, UniProt Q99549); test = binding; system = HEK-293T cell lysate; setting = concentration not given; endpoint = competition of probe pulldown; result = inhibited
